Results collected from several papers.
Numbered parts are unrelated; each lists some results of a single study.
UniProt O75716, sequence (whole entry, looked up): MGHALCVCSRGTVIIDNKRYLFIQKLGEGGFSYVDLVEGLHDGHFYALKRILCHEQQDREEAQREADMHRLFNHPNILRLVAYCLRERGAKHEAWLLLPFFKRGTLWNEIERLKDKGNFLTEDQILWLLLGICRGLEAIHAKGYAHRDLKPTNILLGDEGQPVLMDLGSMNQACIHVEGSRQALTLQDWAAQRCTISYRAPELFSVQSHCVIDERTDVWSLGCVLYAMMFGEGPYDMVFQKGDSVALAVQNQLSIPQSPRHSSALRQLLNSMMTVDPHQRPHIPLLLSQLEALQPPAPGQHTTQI
UniProt Q13554, sequence (whole entry, looked up): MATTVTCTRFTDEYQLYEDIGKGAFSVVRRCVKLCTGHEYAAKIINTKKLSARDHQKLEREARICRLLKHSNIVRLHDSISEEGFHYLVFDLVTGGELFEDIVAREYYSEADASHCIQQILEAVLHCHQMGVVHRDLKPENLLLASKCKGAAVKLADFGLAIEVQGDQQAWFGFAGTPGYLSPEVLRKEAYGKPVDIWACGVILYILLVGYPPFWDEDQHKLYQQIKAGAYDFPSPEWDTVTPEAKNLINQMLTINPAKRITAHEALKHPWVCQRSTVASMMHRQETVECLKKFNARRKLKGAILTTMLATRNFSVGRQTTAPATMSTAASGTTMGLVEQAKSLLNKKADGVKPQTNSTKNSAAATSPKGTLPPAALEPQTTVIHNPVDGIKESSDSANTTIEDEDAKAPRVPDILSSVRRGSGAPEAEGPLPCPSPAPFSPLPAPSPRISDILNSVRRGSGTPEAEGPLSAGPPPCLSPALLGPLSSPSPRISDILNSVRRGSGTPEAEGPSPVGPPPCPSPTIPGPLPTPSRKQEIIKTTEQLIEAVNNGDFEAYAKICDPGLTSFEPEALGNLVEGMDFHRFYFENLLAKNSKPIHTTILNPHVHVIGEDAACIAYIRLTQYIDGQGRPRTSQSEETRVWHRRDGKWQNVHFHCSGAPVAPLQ
UniProt Q9UPZ9, sequence (whole entry, looked up): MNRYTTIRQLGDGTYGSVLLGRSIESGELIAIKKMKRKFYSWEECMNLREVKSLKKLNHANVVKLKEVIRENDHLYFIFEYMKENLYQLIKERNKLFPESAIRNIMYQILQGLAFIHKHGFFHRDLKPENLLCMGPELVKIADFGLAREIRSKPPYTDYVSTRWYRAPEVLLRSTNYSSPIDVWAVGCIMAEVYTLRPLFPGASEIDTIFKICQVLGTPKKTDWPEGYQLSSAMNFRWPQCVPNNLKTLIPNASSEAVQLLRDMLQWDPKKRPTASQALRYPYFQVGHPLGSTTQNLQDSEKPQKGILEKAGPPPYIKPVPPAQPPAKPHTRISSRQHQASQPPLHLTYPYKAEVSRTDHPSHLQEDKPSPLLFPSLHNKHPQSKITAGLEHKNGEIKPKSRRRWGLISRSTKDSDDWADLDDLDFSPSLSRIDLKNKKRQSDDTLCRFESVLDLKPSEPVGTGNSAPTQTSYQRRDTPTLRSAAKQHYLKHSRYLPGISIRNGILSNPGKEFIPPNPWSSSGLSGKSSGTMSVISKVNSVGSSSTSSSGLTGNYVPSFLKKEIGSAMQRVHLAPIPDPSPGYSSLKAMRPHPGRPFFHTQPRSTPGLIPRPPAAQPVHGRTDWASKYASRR
UniProt P49674, sequence (whole entry, looked up): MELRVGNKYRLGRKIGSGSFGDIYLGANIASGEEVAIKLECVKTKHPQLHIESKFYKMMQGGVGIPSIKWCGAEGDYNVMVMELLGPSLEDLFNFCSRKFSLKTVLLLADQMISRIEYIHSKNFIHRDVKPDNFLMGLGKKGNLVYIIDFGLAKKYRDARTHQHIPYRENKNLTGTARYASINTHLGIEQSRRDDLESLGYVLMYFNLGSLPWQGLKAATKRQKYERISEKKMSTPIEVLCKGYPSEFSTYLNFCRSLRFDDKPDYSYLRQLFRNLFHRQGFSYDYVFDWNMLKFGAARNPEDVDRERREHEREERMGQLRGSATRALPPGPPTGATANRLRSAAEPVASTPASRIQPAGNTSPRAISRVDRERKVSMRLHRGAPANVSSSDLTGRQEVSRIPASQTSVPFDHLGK
UniProt P54646, sequence (whole entry, looked up): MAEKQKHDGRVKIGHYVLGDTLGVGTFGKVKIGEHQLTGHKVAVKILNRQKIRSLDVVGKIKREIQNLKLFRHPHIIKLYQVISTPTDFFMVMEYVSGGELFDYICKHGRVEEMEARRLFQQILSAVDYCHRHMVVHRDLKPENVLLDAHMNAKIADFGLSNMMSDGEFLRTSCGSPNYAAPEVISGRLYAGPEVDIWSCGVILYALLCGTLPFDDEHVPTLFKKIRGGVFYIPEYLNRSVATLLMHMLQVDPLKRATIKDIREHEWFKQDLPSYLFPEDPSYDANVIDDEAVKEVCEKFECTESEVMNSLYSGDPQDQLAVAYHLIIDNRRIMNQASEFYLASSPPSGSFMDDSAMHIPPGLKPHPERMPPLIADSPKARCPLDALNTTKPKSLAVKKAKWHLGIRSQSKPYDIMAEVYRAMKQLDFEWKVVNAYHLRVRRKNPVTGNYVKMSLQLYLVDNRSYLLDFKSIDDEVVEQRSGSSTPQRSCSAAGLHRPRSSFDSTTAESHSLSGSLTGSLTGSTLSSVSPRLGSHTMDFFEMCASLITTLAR
UniProt Q13557, sequence (whole entry, looked up): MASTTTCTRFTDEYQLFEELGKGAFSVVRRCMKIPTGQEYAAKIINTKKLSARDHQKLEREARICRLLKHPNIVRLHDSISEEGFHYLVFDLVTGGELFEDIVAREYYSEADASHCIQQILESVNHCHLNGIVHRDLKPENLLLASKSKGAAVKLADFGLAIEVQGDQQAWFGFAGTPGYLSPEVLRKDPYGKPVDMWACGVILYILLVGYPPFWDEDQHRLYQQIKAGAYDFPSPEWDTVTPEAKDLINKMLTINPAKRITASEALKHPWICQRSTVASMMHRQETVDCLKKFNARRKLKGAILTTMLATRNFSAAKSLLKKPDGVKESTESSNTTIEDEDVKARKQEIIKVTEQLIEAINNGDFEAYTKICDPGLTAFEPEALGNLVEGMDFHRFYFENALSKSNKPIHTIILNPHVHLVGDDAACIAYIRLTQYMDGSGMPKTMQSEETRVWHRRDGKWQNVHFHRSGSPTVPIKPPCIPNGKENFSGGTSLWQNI
UniProt P51813, sequence (whole entry, looked up): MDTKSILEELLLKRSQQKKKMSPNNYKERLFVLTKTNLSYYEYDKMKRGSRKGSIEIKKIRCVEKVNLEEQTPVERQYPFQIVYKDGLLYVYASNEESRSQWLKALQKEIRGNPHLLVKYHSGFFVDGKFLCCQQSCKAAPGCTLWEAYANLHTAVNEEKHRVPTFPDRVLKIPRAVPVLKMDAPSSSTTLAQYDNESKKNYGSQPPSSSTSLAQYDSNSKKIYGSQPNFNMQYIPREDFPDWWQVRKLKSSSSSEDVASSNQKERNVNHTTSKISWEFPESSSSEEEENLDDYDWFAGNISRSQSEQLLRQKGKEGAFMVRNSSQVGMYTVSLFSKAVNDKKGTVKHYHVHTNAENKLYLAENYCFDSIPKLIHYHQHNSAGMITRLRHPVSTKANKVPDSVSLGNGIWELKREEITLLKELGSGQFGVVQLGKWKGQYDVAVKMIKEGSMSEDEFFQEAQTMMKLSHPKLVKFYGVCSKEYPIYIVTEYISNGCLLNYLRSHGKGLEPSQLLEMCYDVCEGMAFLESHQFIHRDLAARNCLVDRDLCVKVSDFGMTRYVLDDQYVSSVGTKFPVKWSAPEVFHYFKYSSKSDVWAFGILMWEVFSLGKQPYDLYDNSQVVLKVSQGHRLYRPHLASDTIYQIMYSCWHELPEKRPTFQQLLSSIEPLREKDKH
UniProt Q8NE63, sequence (whole entry, looked up): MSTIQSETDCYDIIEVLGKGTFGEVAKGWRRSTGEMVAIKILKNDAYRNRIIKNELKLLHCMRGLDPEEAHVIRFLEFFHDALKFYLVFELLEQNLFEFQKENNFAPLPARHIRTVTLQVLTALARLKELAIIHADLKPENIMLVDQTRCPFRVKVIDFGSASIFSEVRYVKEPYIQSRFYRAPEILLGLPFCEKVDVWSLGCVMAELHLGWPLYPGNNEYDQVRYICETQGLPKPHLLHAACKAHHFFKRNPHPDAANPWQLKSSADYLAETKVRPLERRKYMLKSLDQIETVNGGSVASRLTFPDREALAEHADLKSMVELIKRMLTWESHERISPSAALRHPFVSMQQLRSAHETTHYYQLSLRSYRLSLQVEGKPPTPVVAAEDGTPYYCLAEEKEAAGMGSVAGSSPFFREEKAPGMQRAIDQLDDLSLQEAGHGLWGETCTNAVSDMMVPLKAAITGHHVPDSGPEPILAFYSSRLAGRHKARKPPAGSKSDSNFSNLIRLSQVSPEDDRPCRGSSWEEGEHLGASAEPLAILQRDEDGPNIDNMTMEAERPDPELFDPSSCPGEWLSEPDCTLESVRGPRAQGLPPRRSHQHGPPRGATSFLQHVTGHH
UniProt Q16816, sequence (whole entry, looked up): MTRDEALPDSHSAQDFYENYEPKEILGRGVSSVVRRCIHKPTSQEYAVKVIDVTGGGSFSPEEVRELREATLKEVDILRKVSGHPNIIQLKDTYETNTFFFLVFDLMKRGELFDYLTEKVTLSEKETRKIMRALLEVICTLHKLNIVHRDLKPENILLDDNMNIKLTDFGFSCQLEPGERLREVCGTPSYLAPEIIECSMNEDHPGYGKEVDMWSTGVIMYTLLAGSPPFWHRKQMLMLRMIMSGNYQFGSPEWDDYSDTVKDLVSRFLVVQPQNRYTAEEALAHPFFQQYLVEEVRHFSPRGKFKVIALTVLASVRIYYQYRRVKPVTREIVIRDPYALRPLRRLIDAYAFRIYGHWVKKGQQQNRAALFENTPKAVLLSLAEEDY

Set 1
Medium: 1,9-decadiene/PBS
pH: 7.4
With `CC(C)C[C@@H]1NC(=O)[C@H](CC(C)C)NC(=O)[C@H](CC(C)C)NC(=O)[C@H](CC(C)C)NC(=O)[C@H](C(C)C)NC(=O)[C@H](C)NC(=O)[C@H](C)NC1=O` the logD was -0.257.
`CC(C)C[C@@H]1NC(=O)[C@H](CC(C)C)NC(=O)[C@@H](C(C)C)NC(=O)[C@H](CC(C)C)NC(=O)[C@H](C(C)C)NC(=O)[C@H](Cc2cscn2)NC(=O)[C@H](C)NC1=O` has a logD of -0.559.
With `CC(C)C[C@@H]1NC(=O)[C@H](C(C)C)NC(=O)[C@H](CC(C)C)NC(=O)[C@@H](CC(C)C)NC(=O)[C@H](CC(C)C)NC(=O)[C@@H](C)NC(=O)[C@@H](CC(C)C)NC1=O` the logD was 1.21.
For `CC(C)C[C@@H]1NC(=O)[C@H](CC(C)C)NC(=O)[C@H](CC(C)C)NC(=O)[C@@H](C)NC(=O)[C@H](C)NC(=O)[C@@H](CC(C)C)NC(=O)[C@H](C)NC1=O`, the logD was -1.8.
For `CC(C)C[C@@H]1NC(=O)[C@H](CC(C)C)NC(=O)[C@@H](C(C)C)NC(=O)[C@H](C)NC(=O)[C@H](C(C)C)NC(=O)[C@H](C)NC(=O)[C@H](C)NC1=O`, the logD was -2.1.
For `CC(C)C[C@@H]1NC(=O)[C@@H](C)NC(=O)[C@H](C)NC(=O)[C@H](C)NC(=O)[C@H](C(C)C)NC(=O)[C@H](CC(C)C)NC(=O)[C@@H](CC(C)C)NC1=O`, the logD was -2.1.
With `CC(C)C[C@@H]1NC(=O)[C@H](C)NC(=O)[C@@H](CC(C)C)NC(=O)[C@H](C(C)C)NC(=O)[C@H](CC(C)C)NC(=O)[C@@H](CC(C)C)NC(=O)[C@H](CC(C)C)NC1=O` the logD was 1.05.
With `CC(C)C[C@@H]1NC(=O)[C@H](CC(C)C)NC(=O)[C@H](CC(C)C)NC(=O)[C@H](CC(C)C)NC(=O)[C@@H](CCC(=O)N2CCCC2)NC(=O)[C@H](C)NC(=O)[C@H](C)NC1=O` the logD was -1.62.
The logD of `CC(C)C[C@@H]1NC(=O)[C@H](CC(C)C)NC(=O)[C@@H](CC(C)C)NC(=O)[C@@H](C)NC(=O)[C@H](C)NC(=O)[C@H](Cc2cscn2)NC(=O)[C@H](CCC(=O)N2CCCC2)NC1=O` is reported as -2.95.

Set 2
SMILES: COc1cc2ncnc(N3CCN(C(=O)Nc4ccc(Oc5ccccc5)cc4)CC3)c2cc1OC
Observed: enzyme activity
Action: inhibitor
Tested at: 0.5 µM
Reference: control
It gave 75.4% for remaining activity (Homeodomain-interacting protein kinase 4 (HIPK4, Homo sapiens, UniProt Q8NE63)).
It gave 94.2% for remaining activity (Serine/threonine-protein kinase 16 (STK16, Homo sapiens, UniProt O75716)).
The remaining activity was 94.3% (Ephrin type-B receptor 1 (EPHB1, Homo sapiens, UniProt P54762)).
Phosphorylase b kinase gamma catalytic chain, skeletal muscle/heart isoform (PHKG1, Homo sapiens, UniProt Q16816) — remaining activity: 89.5%.
For Tyrosine-protein kinase Blk (BLK, Homo sapiens, UniProt P51451): remaining activity read 113%.
For Calcium/calmodulin-dependent protein kinase type II subunit beta (CAMK2B, Homo sapiens, UniProt Q13554): remaining activity read 96.3%.
Ribosomal protein S6 kinase alpha-6 (RPS6KA6, Homo sapiens, UniProt Q9UK32) — remaining activity: 92%.
Cyclin-dependent kinase 4, with cyclin D3 (CDK4, Homo sapiens, UniProt P11802) — remaining activity: 90.3%.
Serine/threonine-protein kinase 17A (STK17A, Homo sapiens, UniProt Q9UEE5) — remaining activity: 85.5%.
Serine/threonine-protein kinase WNK3 (WNK3, Homo sapiens, UniProt Q9BYP7) — remaining activity: 101%.
For Mitogen-activated protein kinase kinase kinase kinase 4 (MAP4K4, Homo sapiens, UniProt O95819): remaining activity read 88.4%.
For Tyrosine-protein kinase Srms (SRMS, Homo sapiens, UniProt Q9H3Y6): remaining activity read 93.6%.

Set 3
SMILES: CC(=O)N[C@@H](Cc1c[nH]c2ccccc12)C(=O)N[C@@H](CCC(=O)C=[N+]=[N-])C(=O)OC(C)C
Dose: dose not given
Reference: vehicle
For measured: UDP-galactose; mouse, EL4 tumour-bearing, EL4 tumour: fold change read 0.398.
The fold change was 4.12 (metabolomics, measured: cytidine 2',3'-cyclic monophosphate; mouse, EL4 tumour).
The fold change was 0.132 (measured: glutamate gamma-methyl ester; mouse, EL4 tumour, tumour).
measured: 2'-deoxyadenosine 5'-monophosphate; mouse, EL4 tumour, tumour — fold change: 0.364.
measured: argininosuccinate; mouse, EL4 tumour-bearing, EL4 tumour — fold change: 0.492.
It gave 0.41 for fold change (measured: CoA-glutathione*; mouse, EL4 tumour-bearing, EL4 tumour).
For measured: indolepropionate; mouse, EL4 tumour-bearing, EL4 tumour: fold change read 2.16.
It gave 2.12 for fold change (measured: mannose; mouse, EL4 tumour-bearing, EL4 tumour).

Set 4
SMILES: COCCOc1nc(-c2ccc(Cl)nc2)nc2c1CN(C(=O)c1ncn3ccccc13)CC2
Observed: cell-free assay
Method: competition with immobilised ligand
Tested at: 0.1 µM
The remaining binding was 100% (Casein kinase I isoform epsilon (CSNK1E, Homo sapiens, UniProt P49674)).
The remaining binding was 100% (Serine/threonine-protein kinase 16 (STK16, Homo sapiens, UniProt O75716)).
For Serine/threonine-protein kinase ICK (CILK1, Homo sapiens, UniProt Q9UPZ9): remaining binding read 100%.
It gave 100% for remaining binding (Serine/threonine-protein kinase B-raf (BRAF, Homo sapiens, UniProt P15056, V600E)).
For Cyclin-G-associated kinase (GAK, Homo sapiens, UniProt O14976): remaining binding read 100%.
Peripheral plasma membrane protein CASK (CASK, Homo sapiens, UniProt O14936) — remaining binding: 95%.
Calcium/calmodulin-dependent protein kinase type II subunit delta (CAMK2D, Homo sapiens, UniProt Q13557) — remaining binding: 100%.
The remaining binding was 100% (5'-AMP-activated protein kinase catalytic subunit alpha-2 (PRKAA2, Homo sapiens, UniProt P54646)).
MAP kinase-interacting serine/threonine-protein kinase 1 (MKNK1, Homo sapiens, UniProt Q9BUB5) — remaining binding: 77%.
The remaining binding was 100% (Calcium/calmodulin-dependent protein kinase type II subunit beta (CAMK2B, Homo sapiens, UniProt Q13554)).
It gave 65% for remaining binding (Maternal embryonic leucine zipper kinase (MELK, Homo sapiens, UniProt Q14680)).
Discoidin domain-containing receptor 2 (DDR2, Homo sapiens, UniProt Q16832) — remaining binding: 100%.
For Tyrosine-protein kinase JAK1, JH1 (JAK1, Homo sapiens, UniProt P23458): remaining binding read 100%.
For Cytoplasmic tyrosine-protein kinase BMX (BMX, Homo sapiens, UniProt P51813): remaining binding read 100%.

Some of these lines once more (set 3):
The fold change was 0.132 (measured: glutamate gamma-methyl ester; mouse, EL4 tumour, tumour).
measured: 2'-deoxyadenosine 5'-monophosphate; mouse, EL4 tumour, tumour — fold change: 0.364.
It gave 2.12 for fold change (measured: mannose; mouse, EL4 tumour-bearing, EL4 tumour).
It gave 0.41 for fold change (measured: CoA-glutathione*; mouse, EL4 tumour-bearing, EL4 tumour).
For measured: indolepropionate; mouse, EL4 tumour-bearing, EL4 tumour: fold change read 2.16.
The fold change was 4.12 (metabolomics, measured: cytidine 2',3'-cyclic monophosphate; mouse, EL4 tumour).
